Assay results collected from several papers.
Each numbered part is a random draw from the data of one study; scales do not carry over between parts. Substitutions count along the parent as printed.

Set 1
Target: ABI1, truncated, D143A, DHFR fusion (Arabidopsis thaliana)
Method: DHFR PCA, deep sequencing
Matrix: yeast
Setting: methotrexate growth selection, single substitutions
With: (+)-ABA 2500 µM
Relative to: wild-type fitted maximum
Reading: higher = stronger binding
Endpoint: relative binding score
Parent: PYL1, truncated, DHFR fusion (Arabidopsis thaliana); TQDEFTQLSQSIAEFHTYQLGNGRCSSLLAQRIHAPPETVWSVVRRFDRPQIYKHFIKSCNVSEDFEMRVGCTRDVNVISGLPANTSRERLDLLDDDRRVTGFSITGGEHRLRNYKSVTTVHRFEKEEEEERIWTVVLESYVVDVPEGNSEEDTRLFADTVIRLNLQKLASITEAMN
D159E: 94.5%
T86P: -0.681%
N114S: 95.1%
G108Y: 59.8%
G102F: 12.6%
S63H: 95%
S171H: 97.2%
V137W: 6.11%
P146Y: 72.9%
G23W: 91.8%

Set 2
Target: Sal-like protein 4, full length isoform A (SALL4, Homo sapiens, UniProt Q9UJQ4, residues 1-1053)
Chain of UniProt Q9UJQ4 (whole entry, looked up): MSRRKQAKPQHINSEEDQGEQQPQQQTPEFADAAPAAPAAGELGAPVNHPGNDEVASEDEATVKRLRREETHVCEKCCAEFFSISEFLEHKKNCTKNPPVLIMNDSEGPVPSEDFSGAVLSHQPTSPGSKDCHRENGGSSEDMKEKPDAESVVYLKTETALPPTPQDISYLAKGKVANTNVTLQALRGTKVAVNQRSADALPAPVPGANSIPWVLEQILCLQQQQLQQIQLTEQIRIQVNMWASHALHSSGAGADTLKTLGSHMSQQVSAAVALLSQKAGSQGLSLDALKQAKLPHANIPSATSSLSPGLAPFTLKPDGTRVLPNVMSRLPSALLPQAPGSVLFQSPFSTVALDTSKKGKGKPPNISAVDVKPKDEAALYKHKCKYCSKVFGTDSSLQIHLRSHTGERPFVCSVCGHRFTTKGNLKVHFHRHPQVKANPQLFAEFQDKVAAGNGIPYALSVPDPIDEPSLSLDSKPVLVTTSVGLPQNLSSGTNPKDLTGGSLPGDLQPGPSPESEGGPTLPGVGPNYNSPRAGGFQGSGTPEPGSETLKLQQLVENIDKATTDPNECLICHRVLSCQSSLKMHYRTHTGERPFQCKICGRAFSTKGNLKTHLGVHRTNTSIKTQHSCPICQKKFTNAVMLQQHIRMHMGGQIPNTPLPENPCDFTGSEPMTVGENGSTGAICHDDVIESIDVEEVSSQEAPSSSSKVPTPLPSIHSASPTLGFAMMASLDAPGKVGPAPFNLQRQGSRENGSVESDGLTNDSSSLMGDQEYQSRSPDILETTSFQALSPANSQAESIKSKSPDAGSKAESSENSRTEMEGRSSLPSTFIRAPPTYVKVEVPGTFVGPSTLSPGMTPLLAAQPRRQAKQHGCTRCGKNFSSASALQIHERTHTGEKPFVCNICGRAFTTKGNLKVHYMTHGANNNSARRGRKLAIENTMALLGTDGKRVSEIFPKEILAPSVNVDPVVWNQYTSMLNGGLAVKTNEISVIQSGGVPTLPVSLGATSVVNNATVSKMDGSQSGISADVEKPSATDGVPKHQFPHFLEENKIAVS
Method: universal PBM
Form: double-stranded DNA, one strand shown
Matrix: in vitro
Concentration: 600 nM
Setting: 8-mer, flanks averaged, mean of replicates
Reading: higher = stronger binding
Endpoint: E-score
GGATCGCC: -0.313
AGCCCAAC: -0.18
CCAAGGAC: -0.131
CACTTGAA: 0.119
CTACTGAG: -0.0925
AGTTTTTA: 0.287
AGTGATGA: 0.0937
GGAGGGGA: -0.0857
TAGGTTGA: 0.000865
CATTAATG: 0.264
GCAAAGCC: -0.25
ACAACGTC: -0.0992
CGACTGCG: -0.231
AGGCTACT: -0.0571
ACTCCCCC: -0.216

Set 3
Target: CCNF, cyclin fold, Cln2 fusion (human)
Method: yeast growth competition, sequencing
Matrix: yeast
Setting: weak parent motif
Relative to: not given
Reading: higher = stronger binding
Endpoint: normalised enrichment score
Parent: PKN2 docking peptide (human); VSAVQKLDFSDTM
VSAVQKLIFSDTM [D8I]: 1.8
VSAVQKLDFSDMM [T12M]: 0.842
RSAVQKLDFSDTM [V1R]: 1.16
VSAVQKLDFSDTH [M13H]: 0.49
VSAVAKADFSDTM [Q5A L7A]: -0.141
VSAVQKLPFSDTM [D8P]: 0.00584
VSAVQKLDFQDTM [S10Q]: -0.0566
VSAVQKLDFSDTN [M13N]: 0.652
VGAVQKLDFSDTM [S2G]: 0.137
VSAVQKADFSDTM [L7A]: -0.35
VSAVQKLDFSDTW [M13W]: 1.06
VSAVQKLDNSDTM [F9N]: 0.802
VSAVQKLDQSDTM [F9Q]: -0.0318
VSAVQKLGFSDTM [D8G]: 0.377
VSAVQKLDCSDTM [F9C]: 0.0652
VSAVQKLDFRDTM [S10R]: 0.145
VSAVQKLDFSHTM [D11H]: 1.43

Single results of other studies
PhoQ, residues 284 288 289 292 302 303 NLMGRA — fold induction (PhoP, residues 12 14 15 18 19 NMSSL (Escherichia coli, UniProt P23836); Sort-seq, refers to: YFP reporter; E. coli; PhoQ-PhoP variant library, with: 10 µM Mg2+; relative to: high Mg2+ state, higher = stronger signaling): 4.31

For quick reference, copied from above (set 2):
AGCCCAAC: -0.18
CACTTGAA: 0.119
AGTTTTTA: 0.287
CGACTGCG: -0.231
TAGGTTGA: 0.000865
CCAAGGAC: -0.131
ACAACGTC: -0.0992
